Measurements collected from several papers.
Every numbered part comes from another study and shows a few of its results, in no order. Changes are numbered by the printed parent chain.

Study 1
Target: RING finger protein unkempt homolog, zinc fingers 1-6, GST-SBP tag (UNK, Homo sapiens, UniProt Q9C0B0, residues 30-357)
Sequence of UniProt Q9C0B0 (30-357, looked up): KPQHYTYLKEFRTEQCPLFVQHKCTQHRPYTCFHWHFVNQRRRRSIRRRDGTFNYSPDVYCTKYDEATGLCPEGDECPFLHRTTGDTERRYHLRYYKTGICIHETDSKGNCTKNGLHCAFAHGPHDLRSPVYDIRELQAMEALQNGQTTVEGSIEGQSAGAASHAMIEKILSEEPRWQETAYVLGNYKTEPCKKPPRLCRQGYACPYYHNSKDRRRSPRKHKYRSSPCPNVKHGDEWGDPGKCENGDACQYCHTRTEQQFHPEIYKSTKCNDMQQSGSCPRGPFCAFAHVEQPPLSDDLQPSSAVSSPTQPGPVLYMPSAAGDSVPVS
Technique: RNA Bind-n-Seq
Form: RNA
Sample: in vitro
Tested at: not given
Notes: RNA with constant flanks, human and mouse sites, ends assumed
Reference: input RNA pool
Direction: higher = stronger binding
All sequences stand within: GGGAGUUCUACAGUCCGACGAUC … CAACAGAGGAUUGAGCAUCA
With `AACCCCGUGCUUCAGAUAUUACAGGAUACACAAAUACUGAAGCAACUUAGAUAAUUGAAGAAAAUACAUCUGCCUUCAAAUAGAGUGCUUAGAGUUAGAUUUGUGAUCAGUGUCUUCUAG` the bound/input enrichment was 21.5 ratio.
`UCUGCCCCAGAACAAUUCUGCAGAGUGGUGAAGUUCACUUCCCCAACUCUUCUCCAAGUCUAGCUUUCCUUUCCUUCUGGCUCCAAGGUGCUCUGUGUCCGUCUGUGUAUGUGUGUGUCU` gave a bound/input enrichment of 1.19 ratio.
For `AUGUGCCCGCUUGAAAACUUGGUCCGCUUUGUGAAAAGGGACAUGUUUGUAGCCCUGGGUGGCAGUGGUACAAAUUAUUAUGAUGCAUGUCACAGGGAAGGAUUCUAAAAGGUAUGCAGU`, the bound/input enrichment was 0.216 ratio.
`UCAACCUAUGCACAGUGAGCUGGUUAAGAAGAUCCUAGGCAACAAAGCUACCUUCAGCCCUAUAGUCACUUUGGAACCUAGAAGAAGAAAAUUCCACAAACCAAUUACCAUGACCAUUCC` gave a bound/input enrichment of 0.787 ratio.
For `CUGUGGCUUAUAUUUAUCAUCUGUGUCUGCUAUUAUGUUGCUGUGUUCCCUUUUAUUGGACUUGGGAAAGUUUUCUUUACAGAGAAAUUUGGAUUUUCUUCCCAGGCAGCAAGUGCAAUU`, the bound/input enrichment was 0.346 ratio.
`CUUCAGCUGGUGCUUGUCUGGCUGGGUGAAGUGCUAGGUGUCAUUGGGGACUGUCCAGAGCUAGUUCAGCGCUCCUUCCUGGUGGCUAGUGUUCUGCCUGGCCCCGAUGGCAACAUUAAC` gave a bound/input enrichment of 0.181 ratio.
With `UAUCCAACUUUCUUUCCACGUUUUGAAUUCCAAGAUGUUAUCCCUCCAGAUGACUUUCUAACUAGUGAUGAAGAAGUAGAUUCCGUUUUAUUUGGAAGUUUGAGAGGUCAUGUGGUUGGA` the bound/input enrichment was 0.8 ratio.
The bound/input enrichment of `CCAACAUUGACCAAAAAGGAGACAAUUUCUUUGCAAAUGGAAGAGUUUAAUACUGCAAUUUAUUCCAAUGAUGACUUACUUUCUUCUAAGGAAGACAAAAUGAAAGAAAGUGAAACAUUU` is reported as 0.132 ratio.

Study 2
Target: PABPC1L2, full length, GST fusion (mouse, UniProt A0ABA7IW68)
Technique: RNAcompete
Form: RNA
Sample: in vitro
Tested at: 20 nM
Notes: 7-mer, probes averaged, single round
Reference: mean of 7-mers
Direction: higher = stronger binding
Target sequence (chain): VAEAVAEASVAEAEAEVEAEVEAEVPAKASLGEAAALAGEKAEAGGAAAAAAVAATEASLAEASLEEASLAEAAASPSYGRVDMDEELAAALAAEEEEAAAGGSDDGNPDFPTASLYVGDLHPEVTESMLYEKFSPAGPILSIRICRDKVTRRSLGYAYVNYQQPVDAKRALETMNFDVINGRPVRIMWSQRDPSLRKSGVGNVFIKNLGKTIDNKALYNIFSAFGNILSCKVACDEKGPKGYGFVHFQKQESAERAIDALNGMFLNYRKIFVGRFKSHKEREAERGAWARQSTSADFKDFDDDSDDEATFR
With `GAUCAGU` the 7-mer Z-score was -0.124.
`UAGACAG` has a 7-mer Z-score of -0.0681.
`UAACUAA` has a 7-mer Z-score of 0.0859.
For `GUGCGCC`, the 7-mer Z-score was -0.11.
`AGGUCUG` gave a 7-mer Z-score of -0.0971.
`GGCUUGU` gave a 7-mer Z-score of -0.141.
`UGUUUUG` has a 7-mer Z-score of -0.418.
The 7-mer Z-score of `ACGAAUU` is reported as -0.0681.

Study 3
Molecule: PhoQ, residues 284 288 289 292 302 303 NLMGRA
Technique: Sort-seq
Item: YFP reporter
Sample: E. coli
Notes: PhoQ-PhoP variant library
Added: 10 µM Mg2+
Reference: high Mg2+ state
Direction: higher = stronger signaling
PhoP, residues 12 14 15 18 19 VGHWL (Escherichia coli, UniProt P23836) — fold induction: 3.62.
For PhoP, residues 12 14 15 18 19 LHHYF (Escherichia coli, UniProt P23836): fold induction read 7.88.
The fold induction was 2.13 (PhoP, residues 12 14 15 18 19 TPWTL (Escherichia coli, UniProt P23836)).
The fold induction was 15.4 (PhoP, residues 12 14 15 18 19 NFFVT (Escherichia coli, UniProt P23836)).

Mixed results
Starting sequence: viral docking peptide; CKVKRKLFGSENI
`L7A`: “normalised enrichment score” 0.766 (CCNB1, cyclin fold, Cln2 fusion (human); yeast growth competition, sequencing; yeast; weak parent motif; reference: not given, higher = stronger binding).

Some of these lines once more (study 2):
`GGCUUGU` gave a 7-mer Z-score of -0.141.
`UGUUUUG` has a 7-mer Z-score of -0.418.
